Measured values from different studies.
Numbered parts are unrelated; each lists some results of a single study. Substitutions count along the parent as printed.

Block 1
Target: PABPC1L2, full length, GST fusion (mouse, UniProt A0ABA7IW68)
Technique: RNAcompete
Form: RNA
Sample: in vitro
Concentration: 20 nM
Setting: 7-mer, probes averaged, single round
Baseline: mean of 7-mers
Direction: higher = stronger binding
Target sequence (chain): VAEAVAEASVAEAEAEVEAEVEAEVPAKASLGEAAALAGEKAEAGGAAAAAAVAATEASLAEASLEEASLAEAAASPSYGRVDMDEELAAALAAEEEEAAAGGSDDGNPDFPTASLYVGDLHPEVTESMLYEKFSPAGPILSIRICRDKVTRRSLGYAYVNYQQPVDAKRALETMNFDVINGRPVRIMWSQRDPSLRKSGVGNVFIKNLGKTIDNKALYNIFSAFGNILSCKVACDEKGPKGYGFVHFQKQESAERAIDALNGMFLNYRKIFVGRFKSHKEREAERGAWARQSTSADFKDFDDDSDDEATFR
Oligonucleotide | 7-mer Z-score
UAAUGGA | -0.0264
AUCCCAA | -0.151
AGAUUGA | -0.186
AAAAUUA | 4.87
AUCCCGA | -0.119
GUAGGUC | -0.0554
CCUGCAG | -0.393
GAUAAGG | -0.0337
GGCACUC | 0.0551
AGCGCUA | -0.0355
CGCGUCG | -0.315
GACGAGG | 0.0424
AGCGAGU | -0.0772
AUCGGAU | -0.0699
GCGGUUU | -0.199
ACCACCG | 0.0334
AGAGCUC | -0.38
UAUGCCU | -0.282
CUGCCUU | -0.42
GAUUCAA | -0.00833
UUCCUUU | -0.229
GGGACCU | 0.0805
UAGGAUC | -0.0573
UCGUAGC | -0.349
GACGUAA | 0.0642

Block 2
Target: Interferon regulatory factor 5, full length, phosphomimetic (IRF5, Homo sapiens, UniProt Q13568-2, residues 1-514, S451D/S453D/S456D/S462D)
Technique: protein-binding microarray
Form: double-stranded DNA, one strand shown
Sample: in vitro
Concentration: 940 nM top
Setting: 60-bp whole probe
With: salmon DNA 0.4 mg/ml
Baseline: random background probes
Direction: higher = stronger binding
All sequences stand within: GCCTAGCAC … GTCTTGATTCGCTTGACGCTGCTG
Oligonucleotide | fitted relative affinity
TTATATCTGTGTTATTAAATTGTGCTA | 0.595 z-score
TTAGGTTTCGGTCTTGGTTAGTGCTAG | 14.7 z-score
GACGGTTTCCGTCTCGGGACGTGCTAG | 1.91 z-score
AGGCATCTCGGAGATCTCGAAGTGCTA | -0.47 z-score
TCAACTCTCTAATTTTGACTGTGCTAG | 0.31 z-score
GACGATTTCAGTATCGAGGCGTGCTAG | 2.22 z-score
TCCTCTTTCACTGCTCCCCACGTGCTA | 2.31 z-score
TCATAAAACAACTTTCAAACTGTGCTA | 0.555 z-score
ACCATTTTGTTTTTCATTATGTGCTAG | 1.4 z-score
GACGGACTGCTACCGCTGACGTGCTAG | -0.641 z-score
GACGAACTGAGGCTGGAGACGTGCTAG | -0.68 z-score
AAGTTTTTATTTTCTGAATGGTGCTAG | 1.65 z-score
TTAGGTTTCGACTTTCGTTTAGTGCTA | 8.89 z-score
GACTGTATCGGTTTCGGGACGTGCTAG | 6.08 z-score
TCACCACTCATGCCTCTTACTGTGCTA | 1.15 z-score
TAAGGTCTCCTACTGCTTTAGTGCTAG | -0.0765 z-score
ATAGGTCTCGGTATCGGTTAGTGCTAG | 7.1 z-score
GACGGACTGGACACTGAGGACGTGCTA | -0.784 z-score
TCATATCTGTGTTATTAAACTGTGCTA | 0.798 z-score

Block 3
Target: RING finger protein unkempt homolog, zinc fingers 1-6, GST-SBP tag (UNK, Homo sapiens, UniProt Q9C0B0, residues 30-357)
Sequence of UniProt Q9C0B0 (30-357, looked up): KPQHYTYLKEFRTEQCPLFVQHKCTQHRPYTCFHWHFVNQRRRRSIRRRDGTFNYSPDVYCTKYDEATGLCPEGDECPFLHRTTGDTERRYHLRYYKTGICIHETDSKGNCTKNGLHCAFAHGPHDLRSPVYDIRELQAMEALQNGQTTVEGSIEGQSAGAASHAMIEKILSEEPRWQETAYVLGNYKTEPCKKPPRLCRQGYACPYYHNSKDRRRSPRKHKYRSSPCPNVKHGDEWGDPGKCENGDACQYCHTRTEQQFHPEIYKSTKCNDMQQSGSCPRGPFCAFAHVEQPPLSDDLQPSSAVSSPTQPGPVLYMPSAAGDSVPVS
Technique: RNA Bind-n-Seq
Form: RNA
Sample: in vitro
Concentration: not given
Setting: RNA with constant flanks, ends assumed
Baseline: input RNA pool
Direction: higher = stronger binding
All sequences stand within: GGGAGUUCUACAGUCCGACGAUC … CAACAGAGGAUUGAGCAUCA
Oligonucleotide | bound/input enrichment [ratio]
CUGGGAACCUCCCAGAGGUCCAGCCCAUCUCGGAGCAUCCCGGAGGAAAUCUGCAGAGGGUCCGGAGUGGGUGACAAGAGCCUGAUCUCUUCCUGUUUUGUACAUAGAUUUAUUUUUCAG | 0.75
UAAGCAUAUUAACAUUUUUAAGCAAAAGAUACGUUAACAGUGACCUUUGGUUAUCCACAGCCGCAAGAGUAAAGCACAGAUCAUUGAAAUCCAUAGAUAAUCAGUGAAUCAACUUUCCUA | 0.172
GAAAUGACACUGGCCCAGCUUUUUCUACAGUCAGAGGCUGCUUAUUGUUGUGUCAGUGAAUCCGGAGAACUUGGAAAGGUUCAGUUUCGUGACUUAAAUCCAGAUGUGAAUGUUUUCCAA | 0.11
AGCCACAAAAUAUUUAAUGUGUUGUGCCUUCAUGAUGUAACAGAACAUUCUCCAGGCCGGCCGUUGGGGAAAAUAAAGGGAUAAAUCUCUAAUUAUUGCUGUUUAACUGUUUGUUAUCAU | 0.304
CUAGUGCCAUGGGAACCAGGUCUGAAAAAGUAGAGAGAAGUGAAAGUAGAGUCUGGGAAGCCGCUGCCUAUAACUGAGACUAGACGGAAAAGGAAUACUCGUGUAUUUUAAGAUAUGAAU | 1.13
AAGGAUGCUUUUGAUAAAGGUUCCCUUUUUGGAGGGUCUGUAAAAUUGGCUCUUGCAAGCUCCGGAUAUGAAAAGAGCUGUGUGUUGUUCAAUUGUGCUGCCUUAGCUAGCCAGAUUGCA | 0.29
CAUCUCAGGUCAUCUUCUGUGGAAGAUGUUAAACUAAUUACUAAUGAGGUAAGACCUGCUGCCGAAAUUAGAAGAUGCAGUAUGCCCUCAGUUAUCUGUGAGCCCAUAAAACAUUUCCAA | 0.255
GAUAAUGACCAUCUUCAACUUUCUGCAGAAGUCGUGGAAGGUAGUAGAUACCAGGAAUCAUCCGGCAAUACAGUAUUUGAGUUGGAAAACAGAGAGGCAGAGGCAUACACUGGUCUUUCA | 0.186
UUCCCAAAGGCCUGGGAGCUUUUUGAAAAGAAAGAAAAAAGUGUGUUGGCUUUUUUUUUUUUCCGAAAGUUAGAAUUGUUUUUACCAAGAGUCUAUGUGGGGCUUGAUUCACCCUUCAUC | 0.676

Block 4
Target: UBE2V1 UBC core domain (UniProt Q13404)
Technique: yeast two-hybrid
Sample: yeast
Setting: mostly zero background
Baseline: not given
Direction: higher = stronger interaction
B1: TRIM5 RING domain (UniProt Q9C035); chain ILVNVKEEVTCPICLELLTQPLSLDCGHSFCQACLTANHKKSMLDKGESSCPVCRISYQPENIRP
B2: TRIM4 RING domain (UniProt Q9C037); chain EAEDIQEELTCPICLDYFQDPVSIECGHNFCRGCLHRNWAPGGGPFPCPECRHPSAPAALRP
B3: NEURL1 RING domain (UniProt O76050); chain VTPGLGQWSDECTICYEHAVDTVIYTCGHMCLCYACGLRLKKALHACCPICRRPIKDIIKT
B4: TRIM24 RING domain (UniProt O15164); chain EAARLNLLDTCAVCHQNIQSRAPKLLPCLHSFCQRCLPAPQRYLMLPAPMLGSAETPPPVPAPGSPVSGSSPFATQVGVIRCPVCSQECAERHII
Construct (chain): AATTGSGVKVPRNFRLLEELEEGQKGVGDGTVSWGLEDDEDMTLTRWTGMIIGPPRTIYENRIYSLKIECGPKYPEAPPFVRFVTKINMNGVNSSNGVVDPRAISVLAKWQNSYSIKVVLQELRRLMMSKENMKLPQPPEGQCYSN
Sequence | lacZ reporter activity
MPIRALCTICSDFFDHSRDVAAIHCGHTFHLQCLIQWFETAPSRTCPQCRIQVGKRTIIN (TRAIP RING domain (UniProt Q9BWF2)) | 0
B1 (TRIM5 RING domain) | 0
B2 (TRIM4 RING domain) | 0
B3 (NEURL1 RING domain) | 0
B4 (TRIM24 RING domain) | 0
ASLPTSEEDLCPICYAHPISAVFQPCGHKSCKACINQHLMNNKDCFFCKTTIVSVEDWE (RNF123 RING domain (UniProt Q5XPI4)) | 0
VEPSEENSKDCVVCQNGTVNWVLLPCRHTCLCDGCVKYFQQCPMCRQFVQESFALC (CGRRF1 RING domain (UniProt Q99675)) | 0

Block 5
Target: CCND3, cyclin fold, Cln2 fusion (human)
Technique: yeast growth competition, sequencing
Sample: yeast
Setting: weak parent motif
Baseline: not given
Direction: higher = stronger binding
Starting sequence: PKMYT1 docking peptide (human); SFEPRNLLSLFED; partner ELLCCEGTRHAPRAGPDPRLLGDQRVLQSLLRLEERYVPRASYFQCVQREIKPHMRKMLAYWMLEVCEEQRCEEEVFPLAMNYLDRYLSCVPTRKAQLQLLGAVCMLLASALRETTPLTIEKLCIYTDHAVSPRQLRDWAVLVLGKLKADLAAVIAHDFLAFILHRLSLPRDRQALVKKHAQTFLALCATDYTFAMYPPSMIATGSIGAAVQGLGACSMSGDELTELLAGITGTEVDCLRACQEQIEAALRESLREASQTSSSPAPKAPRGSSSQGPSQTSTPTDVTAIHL
Substitution | normalised enrichment score
SFEPRNYLSLFED [L7Y] | 0.082
SFEPMNLLSLFED [R5M] | 0.107
SFWPRNLLSLFED [E3W] | 0.0879
SFEPRNLLSLFEA [D13A] | 0.115
SFEPRNLLSLFSD [E12S] | 0.0573
KFEPRNLLSLFED [S1K] | 0.00642
SFEPRNLLGLFED [S9G] | 0.0567
SFEPRNLLSDFED [L10D] | 0.166
SQEPRNLLSLFED [F2Q] | 0.0633
SFEPRNLLSLYED [F11Y] | 0.097
SFEPRNLLSLFEG [D13G] | 0.0253
SMEPRNLLSLFED [F2M] | 0.103
SFEPDNLLSLFED [R5D] | 0.115
SFEPTNLLSLFED [R5T] | 0.0854
SDEPRNLLSLFED [F2D] | 0.1
SFCPRNLLSLFED [E3C] | 0.0666
SFEPRYLLSLFED [N6Y] | 0.075
SFEPRNLLTLFED [S9T] | 0.0908
